Measured values of several laboratories.
Parts stem from different laboratories: compare values within a part only. Substitutions count along the parent as printed.

Sample 1 — target: CCNB1, cyclin fold, Cln2 fusion (human); technique: yeast growth competition, sequencing; matrix: yeast; notes: weak parent motif; reference: not given; reading: higher = stronger binding
Starting sequence: SCAPER docking peptide (human); SNARRSLNFGGST
| Substitution | normalised enrichment score |
| --- | --- |
| LNARRSLNFGGST [S1L] | 0.799 |
| SNARRMLNFGGST [S6M] | 0.934 |
| SNARNSLNFGGST [R5N] | -0.367 |
| SNAKRSLNFGGST [R4K] | 0.606 |
| SNARRSLYFGGST [N8Y] | 0.181 |
| SNARRFLNFGGST [S6F] | 1.36 |
| SNLRRSLNFGGST [A3L] | 0.199 |
| SNARRALNFGGST [S6A] | 0.909 |
| SNARRSLSFGGST [N8S] | 1.26 |
| SNARRSLNFDGST [G10D] | 0.197 |
| SNPRRSLNFGGST [A3P] | 0.715 |
| SNARKSLNLGGST [R5K F9L] | -0.0261 |
| SNARRDLNFGGST [S6D] | 0.476 |
| SNARGSLNFGGST [R5G] | 0.158 |
| SNAERSLNFGGST [R4E] | -0.124 |
| SNARRSLMFGGST [N8M] | 0.0683 |
| SNARRSLNEGGST [F9E] | -0.181 |
| SFARRSLNFGGST [N2F] | 1.15 |
| SNARRSLNLGGST [F9L] | 0.173 |
| SNARRSTNFGGST [L7T] | 0.747 |
| SAARRSLNFGGST [N2A] | 0.856 |
| SNARRSLNFGGKT [S12K] | 0.371 |
| SNARRNLNFGGST [S6N] | 0.0237 |
| SNARISLNFGGST [R5I] | 0.0537 |
| SNARRSLNFQGST [G10Q] | 0.0469 |

Sample 2 — technique: DHFR PCA, deep sequencing; matrix: yeast; with: (+)-ABA 0 µM; reference: wild-type fitted maximum; reading: higher = stronger binding
Target: ABI1, truncated, D143A, DHFR fusion (Arabidopsis thaliana)
Notes: methotrexate growth selection, single substitutions
Starting sequence: PYL1, truncated, DHFR fusion (Arabidopsis thaliana); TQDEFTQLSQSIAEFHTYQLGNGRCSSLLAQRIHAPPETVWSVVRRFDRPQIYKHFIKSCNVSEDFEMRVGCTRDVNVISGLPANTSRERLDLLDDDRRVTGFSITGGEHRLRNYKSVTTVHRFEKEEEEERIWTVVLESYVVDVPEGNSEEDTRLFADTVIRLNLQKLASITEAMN; partner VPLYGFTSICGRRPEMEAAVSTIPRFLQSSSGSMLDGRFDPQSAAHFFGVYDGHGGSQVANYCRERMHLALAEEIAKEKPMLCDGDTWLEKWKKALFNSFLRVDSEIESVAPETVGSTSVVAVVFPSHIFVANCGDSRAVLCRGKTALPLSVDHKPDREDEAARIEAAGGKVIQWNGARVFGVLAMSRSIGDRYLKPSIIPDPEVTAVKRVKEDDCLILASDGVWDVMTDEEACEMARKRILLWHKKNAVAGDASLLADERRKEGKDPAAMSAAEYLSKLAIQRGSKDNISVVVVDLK
| Substitution | relative binding score [%] |
| --- | --- |
| W134S | 35.2 |
| L82Y | 48.4 |
| L156P | 1.83 |
| R113K | 43 |
| I162F | -8.28 |
| D159P | -12.6 |
| C25G | 1.38 |
| V43N | -4.42 |
| V121F | -5.19 |
| R132W | 1.83 |
| W134T | 37.8 |
| G81K | -5.49 |
| D97I | 4.52 |
| D153C | -0.093 |
| F47S | -4.55 |

Sample 3 — technique: Sort-seq; refers to: YFP reporter; matrix: E. coli; notes: PhoQ-PhoP variant library; with: 10 µM Mg2+; reference: high Mg2+ state; reading: higher = stronger signaling
Substance: PhoQ, residues 284 288 289 292 302 303 SIHLQL
| target | fold induction |
| --- | --- |
| PhoP, residues 12 14 15 18 19 ICWRQ (Escherichia coli, UniProt P23836) | 1.85 |
| PhoP, residues 12 14 15 18 19 VHTVL (Escherichia coli, UniProt P23836) | 13.8 |
| PhoP, residues 12 14 15 18 19 TQCLL (Escherichia coli, UniProt P23836) | 2.49 |

Sample 4 — technique: RNA Bind-n-Seq; form: RNA; matrix: in vitro; tested at: 200 nM; notes: whole 134-nt RNA, ends assumed; with: 150 mM LiCl; reference: input library; reading: higher = stronger binding; each molecule: 7-deaza-guanosine replaces G
Target: Fragile X messenger ribonucleoprotein 1, C-terminal low-complexity region (Fmr1, Mus musculus, UniProt P35922)
Constant ends, left off below: GGGAGUUCUACAGUCCGACGAUC … UGGAAUUCUCGGGUGUCAAGG
| Sequence | log2 enrichment |
| --- | --- |
| GCAGGAAGUAAUAACAAAUGGAAAUGCUUCGGAUAGUGGCAGGGGUGGGGGUUGCUAAGGAAAGGGUGGGAUGGGAGUGGGUAAAGAGUU | 1.55 |
| GUCCUGUGCUACACAUCGUAUGUACCGAAUCGGGAAAAAAAGGGAAAAAGGGUUUGGGAAAGUAUUAUGUUACGCCGUUCGGAUCUGCAC | -2.27 |
| CAAGUCCUGUGCUACACAUCGUAUGUACCGAAUCGGGGCCCGGGCCCGGCCCGGGGAAAGUAUUAUGUUACGCCGUUCGGAUCUGCACUU | -1.59 |
| CAAGUCCUGUGCUACACAUCGUAUGUACCGAAUCGGUUUUUUUGGAAAGGAAAGGAAAGUAUUAUGUUACGCCGUUCGGAUCUGCACUUC | -1.45 |
| CACAGGCAACACGCACCCACACAGACACAGAGGGAAGGGGUUGGGAUGGGGACAGGGUGCACAGCAGGGCGGGGUAGGACCCCAGCCCCU | 0.784 |
| UGGGAGGUGGAUUUUGUUUAUUUGUUUAGCUCAUUUCCAGGGGUGGGAAUUUUUUUUUAAUAUGUGUCAUGAAUAAAGUUGUUUUUGAAA | 0.0159 |
| CUGUGCUACACAUCGUAUGUACCGAAUCGGGGUUUUUUUGGGGAAAGGGGAAAAAAAGGGGAAAGUAUUAUGUUACGCCGUUCGGAUCUG | -0.854 |
| CCUGUGCUACACAUCGUAUGUACCGAAUCGGGGUUUUUUGGGGUUUUUUGGUUUUUUGGGAAAGUAUUAUGUUACGCCGUUCGGAUCUGC | -0.648 |
| GUCCUGUGCUACACAUCGUAUGUACCGAAUCGGGGAAAAAGGGAAAAAGGGAAAAAGGAAAGUAUUAUGUUACGCCGUUCGGAUCUGCAC | 0.168 |
| ACCAUGCAGGUGGGCAUCUUUGGGAAGUGGGGCAAGGGGGGGAUAGGGAGGGGGGUAACACUUUGGGAACAGGUGGUCCCAGGUCAAAUC | 1.19 |
| CUCAAGUCCUGUGCUACACAUCGUAUGUACCGAAUCGGAGGAAAAAGGAAAGGAAAGUAUUAUGUUACGCCGUUCGGAUCUGCACUUCCA | -0.679 |

Excerpt of the above (sample 2):
| Substitution | relative binding score [%] |
| --- | --- |
| C25G | 1.38 |
| V43N | -4.42 |
| V121F | -5.19 |
| R132W | 1.83 |
| W134T | 37.8 |
| G81K | -5.49 |
| D97I | 4.52 |
| D153C | -0.093 |
| F47S | -4.55 |
